{"data": "Published values collected from several papers", "note": "Every numbered part comes from another study and shows a few of its results, in no order. Changes are numbered by the printed parent chain."}
{"data": "Sample 1", "target": "RNA binding protein fox-1 homolog 2, RRM domain, GST-SBP tag (RBFOX2, Homo sapiens, UniProt O43251-10, residues 100-194)", "method": "RNA Bind-n-Seq", "form": "RNA", "sample": "in vitro", "tested at": "365 nM", "setting": "natural RNA segment, single round, ends assumed", "baseline": "no-protein control", "direction": "higher = stronger binding", "Construct (chain)": "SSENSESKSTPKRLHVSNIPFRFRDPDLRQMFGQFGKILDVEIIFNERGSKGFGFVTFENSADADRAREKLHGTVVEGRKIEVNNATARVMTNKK"}
{"Oligonucleotide": "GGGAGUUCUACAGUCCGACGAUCAAGACACUGGCCUGCAUCAGUUAGAGUCAGAGCAAGUGUCACUUCACAGGGAAAAGAAGGAUUAUAUAGACUUCCUAUCCCUAGAGUUUAUAAAUGUCAACUAUAUAAAAUGGAAUUCUCGGGUGCCAA", "RBNS enrichment (R)": 0.399}
{"Oligonucleotide": "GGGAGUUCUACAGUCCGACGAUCCUCCCAAGCCAGAGUCAAGGUCUGACGCCACCUCAAGGUGACAGCUCAUCUCCAGCACAGCACAGGCGUGUGCACACAGAGGUGUUCCUUGCAGCCCCCUCCCUCUCAGGUGGAAUUCUCGGGUGCCAA", "RBNS enrichment (R)": 0.402}
{"Oligonucleotide": "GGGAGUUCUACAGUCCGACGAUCUUACAUUAUGUUCCUUUGGAUAAAUUGUGAUUUGACAACUGAUUUCAAUAAAAAUAUUUGCUUCACUAUAUUCACUGUUUUUUUAUUAAAUACUGAGGGGCCUGGAUCACUGGAAUUCUCGGGUGCCAA", "RBNS enrichment (R)": 0.672}
{"Oligonucleotide": "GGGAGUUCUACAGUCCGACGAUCGUGCCAUUUUGAUUUUUAUUUUGGUUGGUUGGUUGAAUAAAUAUGCGACACUCAGAACACUUGAGGUGAUAGUUUUAAAAAAAACAAACAAACAGUACCAGUAUUUGAUCUGGAAUUCUCGGGUGCCAA", "RBNS enrichment (R)": 0.651}
{"Oligonucleotide": "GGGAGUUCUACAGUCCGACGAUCAUAAGUCUUAGAUGUUUGAGUGAAGCACUGCUACAAUAGUAAUAGUUUGGCUAGAUCUUAAAGCUGUUUUGGUAAUUAAUGUCUUGUGACAUUUAAUAAUGACUUAGCAAUGGAAUUCUCGGGUGCCAA", "RBNS enrichment (R)": 0.332}
{"Oligonucleotide": "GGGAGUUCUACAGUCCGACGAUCUUCCAAAGAAAACUACCACAUCUUGACAUUUCAUCCUUUUCUGAGUCCAAGGCCAAGAACCUCAUCAAGGAGGCAGGCAACGAGUUUGUACAGCACAAUGCCAGACAGUUUGGAAUUCUCGGGUGCCAA", "RBNS enrichment (R)": 0.523}
{"Oligonucleotide": "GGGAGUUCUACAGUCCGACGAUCAUGACACAUUUCGGACCCUCUGAGUCCCCCUGGAGGACUCCCUUGAGGCUGAACCCUCUCAAAGGGCUGUCACCAUCACCUGCUGCUAGGACACUACAAAACAAUCAAAUUGGAAUUCUCGGGUGCCAA", "RBNS enrichment (R)": 0.339}
{"Oligonucleotide": "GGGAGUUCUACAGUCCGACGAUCGGAGAUGGCCACAGGGGACAACACACUAAUGGUUAAUUAUUGCUCAUGUUGUAGAGCCUUUUCUUAGGUGGAGUAUUUCUGAAGGCUUUAAAAUCAUUACAAUAAAAACCUGGAAUUCUCGGGUGCCAA", "RBNS enrichment (R)": 0.897}
{"data": "Sample 2", "target": "Sal-like protein 4, full length isoform A (SALL4, Homo sapiens, UniProt Q9UJQ4, residues 1-1053)", "method": "universal PBM", "form": "double-stranded DNA, one strand shown", "sample": "in vitro", "tested at": "600 nM", "setting": "8-mer, flanks averaged, mean of replicates", "direction": "higher = stronger binding", "UniProt Q9UJQ4, sequence (whole entry, looked up)": "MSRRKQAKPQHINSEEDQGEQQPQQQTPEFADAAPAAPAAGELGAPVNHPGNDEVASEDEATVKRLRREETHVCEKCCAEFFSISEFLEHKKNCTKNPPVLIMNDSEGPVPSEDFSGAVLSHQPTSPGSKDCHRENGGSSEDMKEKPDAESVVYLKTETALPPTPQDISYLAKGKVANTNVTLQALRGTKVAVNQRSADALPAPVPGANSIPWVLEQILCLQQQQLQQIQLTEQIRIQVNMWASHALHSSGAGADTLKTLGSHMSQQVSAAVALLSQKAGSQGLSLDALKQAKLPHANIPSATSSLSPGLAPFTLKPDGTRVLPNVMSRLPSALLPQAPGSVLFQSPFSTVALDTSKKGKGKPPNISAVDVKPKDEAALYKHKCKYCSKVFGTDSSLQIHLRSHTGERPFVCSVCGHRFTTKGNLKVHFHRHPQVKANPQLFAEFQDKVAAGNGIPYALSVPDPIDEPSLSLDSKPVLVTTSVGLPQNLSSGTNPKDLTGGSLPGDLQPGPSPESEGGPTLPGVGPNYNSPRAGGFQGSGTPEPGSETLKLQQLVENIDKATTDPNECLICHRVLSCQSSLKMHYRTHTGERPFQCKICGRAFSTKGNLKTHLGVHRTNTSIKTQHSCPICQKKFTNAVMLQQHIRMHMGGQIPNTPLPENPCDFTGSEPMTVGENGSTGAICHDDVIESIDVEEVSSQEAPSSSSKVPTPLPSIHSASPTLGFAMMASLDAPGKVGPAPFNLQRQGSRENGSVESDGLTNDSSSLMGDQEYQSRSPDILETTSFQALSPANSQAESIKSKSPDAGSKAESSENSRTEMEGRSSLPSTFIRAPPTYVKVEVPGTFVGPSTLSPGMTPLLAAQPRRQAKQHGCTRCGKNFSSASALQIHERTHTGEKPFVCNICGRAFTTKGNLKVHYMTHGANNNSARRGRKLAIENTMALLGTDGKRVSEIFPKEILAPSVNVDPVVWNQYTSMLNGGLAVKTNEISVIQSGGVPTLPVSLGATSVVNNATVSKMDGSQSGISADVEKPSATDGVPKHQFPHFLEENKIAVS"}
{"Oligonucleotide": "GCGTCTTA", "E-score": 0.0291}
{"Oligonucleotide": "ATCCGCTG", "E-score": -0.281}
{"Oligonucleotide": "ATATGAGG", "E-score": 0.164}
{"Oligonucleotide": "CCTCGTTA", "E-score": 0.0776}
{"Oligonucleotide": "TAACATGA", "E-score": 0.233}
{"Oligonucleotide": "GCTTGGCA", "E-score": -0.093}
{"Oligonucleotide": "GAAGGATA", "E-score": 0.00443}
{"Oligonucleotide": "AGTCTTGG", "E-score": -0.00148}
{"data": "Single results of other studies", "P1": "viral docking peptide; KGVKRKLFAEDSS; partner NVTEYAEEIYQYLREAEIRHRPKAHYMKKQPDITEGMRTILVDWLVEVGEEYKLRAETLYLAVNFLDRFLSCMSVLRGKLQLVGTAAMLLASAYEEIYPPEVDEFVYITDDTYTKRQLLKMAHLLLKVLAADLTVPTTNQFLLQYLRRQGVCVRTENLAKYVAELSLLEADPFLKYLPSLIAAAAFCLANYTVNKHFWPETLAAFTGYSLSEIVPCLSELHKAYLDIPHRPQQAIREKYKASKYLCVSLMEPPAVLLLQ"}
{"Molecule": "RSDEYVAYY", "target": "HLA class I histocompatibility antigen, C alpha chain, allele C*04:01 (Homo sapiens, UniProt P10321)", "assay": "peptide-MHC binding", "system": "peptide", "setting": "concentration not given", "quantity": "binding", "value": "inactive"}
{"Molecule": "P1 S13A", "target": "CCNA1, cyclin fold, Cln2 fusion (human)", "assay": "yeast growth competition, sequencing", "system": "yeast", "setting": "weak parent motif", "how to read": "baseline: not given, higher = stronger binding", "quantity": "normalised enrichment score", "value": 0.837}
